Results pooled from the literature.
Protocols differ between the studies behind these lines.
UCHL1: Ubiquitin carboxyl-terminal hydrolase isozyme L1 (UCHL1, Homo sapiens, UniProt P09936)
Chain of UniProt P09936 (whole entry, looked up): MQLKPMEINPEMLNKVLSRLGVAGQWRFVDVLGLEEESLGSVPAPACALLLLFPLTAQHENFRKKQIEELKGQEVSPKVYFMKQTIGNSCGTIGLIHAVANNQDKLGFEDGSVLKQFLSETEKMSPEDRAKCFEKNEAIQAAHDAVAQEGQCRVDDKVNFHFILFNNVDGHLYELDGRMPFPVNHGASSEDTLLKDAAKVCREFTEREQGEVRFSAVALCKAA
T1: RNA aptamer, triplex fused, Baby Spinach; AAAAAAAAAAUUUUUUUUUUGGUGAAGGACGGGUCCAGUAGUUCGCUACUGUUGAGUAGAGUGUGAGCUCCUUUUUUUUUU
T2: RNA aptamer, circularly permuted; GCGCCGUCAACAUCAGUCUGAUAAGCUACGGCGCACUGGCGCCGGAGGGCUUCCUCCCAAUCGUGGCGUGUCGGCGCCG
T3: RNA aptamer; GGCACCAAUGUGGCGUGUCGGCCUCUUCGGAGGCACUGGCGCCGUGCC
T4: RNA aptamer del49, 5'-triphosphate, 2',3'-cyclic phosphate; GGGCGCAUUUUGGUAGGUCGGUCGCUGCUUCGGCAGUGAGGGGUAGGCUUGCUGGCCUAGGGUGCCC
T5: RNA aptamer; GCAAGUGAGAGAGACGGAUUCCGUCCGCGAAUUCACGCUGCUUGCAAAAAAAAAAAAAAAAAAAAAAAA
T6: RNA aptamer circularly permuted; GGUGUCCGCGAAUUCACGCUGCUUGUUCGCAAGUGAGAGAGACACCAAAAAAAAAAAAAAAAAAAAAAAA
T7: RNA aptamer, 2'-5' linkage G15-U16; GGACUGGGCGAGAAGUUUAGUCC
T8: RNA aptamer; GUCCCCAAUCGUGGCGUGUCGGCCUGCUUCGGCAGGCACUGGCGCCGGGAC
T9: RNA aptamer; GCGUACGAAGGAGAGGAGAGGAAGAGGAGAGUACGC
T10: RNA aptamer; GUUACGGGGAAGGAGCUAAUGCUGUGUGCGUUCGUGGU

Structure (SMILES) | target | test | conditions | measurement | result
CC1=N/C(=C\c2cc(F)c(O)c(F)c2)C(=O)N1C | T1, RNA aptamer, triplex fused, Baby Spinach | fluorescence titration | pH 7, added: DFHBI 0.02– | Kd | 711 nM
CN(CCO)c1cc2sc(/C=C(\C#N)c3ccc(C#N)cc3)cc2s1 | T2, RNA aptamer, circularly permuted | fluorescence activation, native PAGE |  | binding | no binding
CN(CCO)c1ccc(/C=C(\C#N)c2ccc(C#N)cc2)cc1 | T3, RNA aptamer | fluorescence titration, Hill fit | apparent | Kd | 1790 nM
Nc1nc2c(ncn2[C@@H]2O[C@H](COP(=O)(O)OP(=O)(O)OP(=O)(O)O)[C@@H](O)[C@H]2O)c(=O)[nH]1 | T4, RNA aptamer del49, 5'-triphosphate, 2',3'-cyclic phosphate | ITC |  | Kd | 9.1 nM
Fc1ccc(Nc2nc(NCc3ncccn3)nc(Nc3ccccc3)n2)cc1 | T5, RNA aptamer | SPR | 25 °C | Kd | 7.7 nM
Fc1ccc(Nc2nc(NCc3ncccn3)nc(Nc3ccccc3)n2)cc1 | T6, RNA aptamer circularly permuted | SPR |  | Kd | 21.2 nM
COc1cc(C=C(C#N)C(=O)Nc2ccc(C)cc2)cc(Cl)c1O | UCHL1 | covalent, intact protein LC-MS | 12.5 µM | labelling | 25.2%
NCC[C@H](O)C(=O)N[C@@H]1C[C@H](N)[C@@H](O[C@H]2O[C@H](CN)[C@@H](O)[C@H](O)[C@H]2O)[C@H](O)[C@H]1O[C@H]1O[C@H](CO)[C@@H](O)[C@H](N)[C@H]1O | T7, RNA aptamer, 2'-5' linkage G15-U16 | ITC |  | Kd | 1500 nM
CN(CCO)c1cc2sc(/C=C(\C#N)c3ccc(C#N)cc3)cc2s1 | T8, RNA aptamer | fluorescence turn-on |  | binding | binds
CN1C(=Cc2cc[n+](C)c3ccccc23)Sc2ccccc21 | T9, RNA aptamer | fluorescence titration | apparent | Kd | 5.9 nM
N#CC(=Cc1cccc([N+](=O)[O-])c1)C(=O)NCc1ccc(Cl)cc1 | UCHL1 | covalent, intact protein LC-MS | 12.5 µM | labelling | 41.7%
CN1C=CC(=Cc2sc3ccccc3[n+]2CC(=O)NCCOCCOCCOCCNC(=O)CCCC[C@@H]2SC[C@@H]3NC(=O)N[C@@H]32)c2ccccc21 | T10, RNA aptamer | fluorescence light-up | 10 µM dye | binding | binds
